Published values gathered from unrelated publications.
Numbered parts are unrelated; each lists some results of a single study.

Block 1 — technique: aptamer microarray, sandwich; molecule type: DNA with 2'F-ANA; medium: in vitro; tested at: 200 nM; with: Cy3 exosite-II aptamer, 400 nM; direction: higher = stronger binding; sequence: GGTTGGTGTGGTTGG
Target: Prothrombin, mature alpha-thrombin (F2, Homo sapiens, UniProt P00734)
Notes: whole 15-mer aptamer, many near background
Modification | mean fluorescence intensity [a.u.]
2'F-ANA at 5 6 9 14 15 | 101
2'F-ANA at 1 2 3 5 6 8 9 10 13 14 | 48.8
2'F-ANA at 1 3 5 8 11 12 13 15 | 92.3
2'F-ANA at 1 5 12 15 | 108
2'F-ANA at 3 4 5 6 8 10 11 12 13 14 | 51.5
2'F-ANA at 1 2 3 4 8 9 10 12 14 15 | 50.8
2'F-ANA at 2 5 8 9 11 15 | 62.6
2'F-ANA at 2 3 5 6 7 12 13 14 | 53.6
2'F-ANA at 2 3 4 8 12 13 14 | 390
2'F-ANA at 1 2 3 4 5 6 11 15 | 53.1
2'F-ANA at 3 6 8 12 14 | 760
2'F-ANA at 3 5 6 8 9 10 11 13 14 15 | 52.7
2'F-ANA at 1 2 4 8 13 14 | 115
2'F-ANA at 1 3 5 8 10 11 12 14 15 | 50.6
2'F-ANA at 2 4 6 9 11 12 14 | 102
2'F-ANA at 1 3 4 6 7 9 10 11 12 | 84.3
2'F-ANA at 1 4 7 11 12 13 14 15 | 136
2'F-ANA at 1 3 4 5 6 7 8 9 10 11 12 13 15 | 55.5
2'F-ANA at 2 4 6 8 9 10 12 13 14 | 72.3
2'F-ANA at 2 3 5 7 8 10 12 14 15 | 94.3
2'F-ANA at 1 2 5 6 7 9 10 11 13 | 55.4
2'F-ANA at 6 9 11 13 15 | 318
2'F-ANA at 1 2 7 8 11 12 14 15 | 70
2'F-ANA at 1 3 7 12 | 553
2'F-ANA at 6 7 11 15 | 412

Block 2 — technique: RNA Bind-n-Seq; molecule type: RNA; medium: in vitro; tested at: not given; notes: RNA with constant flanks, ends assumed; baseline: input RNA pool; direction: higher = stronger binding
Target: RING finger protein unkempt homolog, zinc fingers 1-6, GST-SBP tag (UNK, Homo sapiens, UniProt Q9C0B0, residues 30-357)
All sequences stand within: GGGAGUUCUACAGUCCGACGAUC … CAACAGAGGAUUGAGCAUCA
Construct (chain): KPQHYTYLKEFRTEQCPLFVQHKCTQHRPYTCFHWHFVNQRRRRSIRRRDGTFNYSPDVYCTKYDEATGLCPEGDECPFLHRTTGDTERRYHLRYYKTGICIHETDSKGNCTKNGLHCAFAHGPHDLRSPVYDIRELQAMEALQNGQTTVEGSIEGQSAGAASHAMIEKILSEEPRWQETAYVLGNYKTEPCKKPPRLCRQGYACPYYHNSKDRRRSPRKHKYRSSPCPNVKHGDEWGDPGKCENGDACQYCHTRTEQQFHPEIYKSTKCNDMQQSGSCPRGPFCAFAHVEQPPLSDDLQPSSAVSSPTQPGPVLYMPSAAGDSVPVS
Sequence | bound/input enrichment
UCUAGAAUGUCUUCAACUAAAUCAAGUGGAAGUGAAUCAGACAGAUCAGAAAGGCCUGCAUCCGUACGCCAGUCUACUUUCAUCAAAGAAGCCCCAAGCCCAACCCUGAGGAGGAAACUG | 0.115 ratio
CUGAAUGAUUUUGGCUUCAUGAUCUUUCACUCACCAUAUUGUAAACUGGUGCAGAAAUCUCCCGCUCGGAUGUUCCUGAAUGACUUUCUUAAUGAUCAAAACAGAGAUAAAAACAGUAUU | 0.104 ratio
ACAGAAAAUAGCAGCGCAGUGUUACUCCAGUGGCACGAAAAGGCCUUAGCAGUAGGAGGACCCGGCUCCAUUAUAAGAGUUCUUACAGCAAGAAAGACUGUUUAAAAAAAAUAAAAAGAC | 0.47 ratio
UUCUAGUGAAUCUGUGAUAUUGGAAAUUAUUAUUAUGGACAGGGUCAUCCCAUGAAGCCUCACCGAAUCCGCAUGACCCAUAACUUGCUGUUAAAUUAUGGCUUAUACAGAAAAAUGGAA | 0.587 ratio
GCCUUGGCUCCACCCAGUGUGCUUAGUACCAACGUAGGCAGUGUGUACAACACGAAGAAAGCCGGCAAGAGGCUCAACAUCCAGCUUAAGAAAGGUACAGAAGGACUGGGAUUCAGCAUC | 0.131 ratio
UAGGAAGCAAAUGUCUAUUUCCAAAGCAAUGAGCUUGUUGUGACUGUGAUUUUAUUCUUCUACCGUAUUUUUUUCCUCAUUUUAACUGAGAGGAGAAAAUAAUACUCUUUUGCAAUAUCC | 0.068 ratio
GAUCGAACCUGGUCAUUGUGGAAAAAGCAGGAUACAAUCUCACCUGAGUUCGAGCCAGUUUUCCGUCUUUUUGCCUUCACCAACAAAAUUACUUCUGUGCACAGUAGAAUUAUUUGGUCU | 0.844 ratio
GGGGCUGCUGAGAUAUCCUGUGCCCUGGCAGUUAGCCAAGAGGCGGAUAAGUGCCCCACCUCCGAACAGUAUGCCAUGAGAGCGUUUGCCGACGCACUGGAGGUCAUCCCCAUGGCCCUC | 0.0907 ratio
CAGUCUUUAAGUAUGCCAGCAUCUCUUGGAAGGAUGAACCAGGGUACUGCACGCCUUGCCCGUUUAAUGAAUCUUGGAAUGAGUUCUUCAUUGAAUCAACAAGGAGCUCAUAGUGCACUG | 0.111 ratio
GAGAACUUGCAUGAUGUUGCCUACAAGAAUGCCUUGGCUAAUCCUUUGUACUGUCCUGACUACCGGAUGGGGAAGAUAACAUCAGAGGAAUUACAUUACUUUGUUCAGAACCACUUCACA | 0.128 ratio
AAGUCCUCAUUGACAAUUCAGUUUGUUGAAGGCCAAUUUGUUGAUUCCUACGAUCCAACCACCGAGAACACGUUCACCAAGUUGAUCACGGUAAAUGGUCAAGAGUAUCAUCUUCAGCUU | 0.0691 ratio

Block 3 — technique: RNA Bind-n-Seq; molecule type: RNA; medium: in vitro; tested at: 365 nM; baseline: no-protein control; direction: higher = stronger binding
Target: RNA binding protein fox-1 homolog 2, RRM domain, GST-SBP tag (RBFOX2, Homo sapiens, UniProt O43251-10, residues 100-194)
Notes: natural RNA segment, single round, ends assumed
All sequences stand within: GGGAGUUCUACAGUCCGACGAUC … UGGAAUUCUCGGGUGCCAA
Construct (chain): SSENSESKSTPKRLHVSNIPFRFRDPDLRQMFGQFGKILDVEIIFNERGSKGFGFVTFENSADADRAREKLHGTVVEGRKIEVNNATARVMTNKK
Sequence | RBNS enrichment (R)
GCUCCCUCUCAUCUAGCCCAUCAUUUCUUGGGGCCUGAACCCCAGUGGUCCAAAGUAUUGCUUGUGAAAUUUAAAAAAUGUGAAUAUGAUGUGGGGAUGGGCCUCUUCUA | 1.44
CCAAAGGACCUGGUUUGAUUCCCAGCACUCACACGGAGGCUCACUGACCACCUGUAACUCCUGUUCCAAAGGUUUCGAUACCUUCUGACCUCUGGGCACCAGGCGUGCAC | 0.276
GUUUUAGCAUUGUCUUGUUCUGUCCCUUCCACUUCUAACUCCACUGGCUCCAUGAUUCUCUGAGUGGUGGUUCCUUUGCACCCUGUAGAUGUUCUAGGAUAGUUGAUGCA | 14.9
CUGCGUAUGUUAAGAGGAAAUCAGUUUAAAAUGCCUGCUAAUCAAAUGUCGACUCAGCUAACCAUAUGUCCAGGUUGCUGCAGAGUUUCUUUCAAAUCUGAGUGUUGCCU | 13.6
UCUGAAUAAACAACCCCAGCCCACUUAACUAUUCACAUCUUAGAGGCAAAUUCUUGCUAUGUAACUCAGGCUGGCAUCAAAGUCUUAGUCUUUCUGUUGCUGGUUAUUGA | 0.374
UCUUUUAUCCGUCUAUUUAUUUUGUAAGUGUAUUCGUGUGGAGGAGGUUGUUGCUUUAUUUUUUUAAGGCUCUGGAGUGUUGUGUAUGGUUUCUUUUCACAUCCCAGCCU | 0.399
UUAGGAGGACAAAAUGGGGUCAAGAGGACACAGAAGAGUUGUAUAGCACCAGAUUGGUUCCAAAUAGUUAAUGGAUGUGUGCACAUUUUCUGUUCAGGGAUUAAGACCAG | 2.69
CUCACUGCACAGCUUCUAGGUAGCCUUCCAACUUAAUCUAACUUGAGCCUCACAGUAACCCUGUAAAGUUAGUAGAGCUUGUUCUUGUAUUGUGACCUUUUUUAAAAAAA | 0.975
UCAAGUCAACUUGUGUGAUAAGUUCUACUGCACCUAUCUUGGGAAGCAGGGAUACCCUCUUCUUUAGGACUAGAGCUGCCAUUCUUUUCAUCUUUAGCACAAGGAAGGUA | 0.284
CAGCCCUCUCCUGCCUCCAUGCCUUGGGUCCCUGAAGAGCUUAGAACCCAAAGCUAGGGCCACCCCUGCACUUAGGCCUUGGCUGAAGAUCUUGAGACUGGUGUUUCCGU | 1.55
CUUAUCUCGCUCUGGUGUUCACAGGCGGCAUGUGUUCCAGCCGACGAUCGCAUCUUGUGUCGCUGAGGCGGCGCACUGAGGGACCAGAUGGACUCCAGCCCUUCAGGAGG | 1.03
ACUCGGUACCUGGUGUUAACUGGAGCCCUGUUUACAAGGCGGAGUCGGGUCUUGCUGACUUCUCUUCACUUGAGGUCACAUUUUUCCCCCGUGGGGAAAUAAACUGACUU | 0.231

Block 4 — technique: protein binding microarray; molecule type: double-stranded DNA, one strand shown; medium: in vitro; tested at: not given; baseline: not given; direction: higher = stronger binding
Target: Histone acetyltransferase KAT6A, both winged helices, GST fusion (KAT6A, Homo sapiens, UniProt Q92794, residues 1-181)
Notes: 8-mer, flanks averaged, mean of 2 arrays, mostly near background
Target sequence (chain): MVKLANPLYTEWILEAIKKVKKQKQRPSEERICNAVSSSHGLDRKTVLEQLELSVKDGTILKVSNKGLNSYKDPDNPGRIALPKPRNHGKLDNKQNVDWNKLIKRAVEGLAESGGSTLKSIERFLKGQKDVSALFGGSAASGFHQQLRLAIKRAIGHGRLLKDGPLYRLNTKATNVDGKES
Sequence | E-score
AGTCCGGC | 0.174
CCCCTACA | -0.169
TTATAGAA | -0.0681
CAAGGACG | 0.0665
CAGAGATG | -0.131
ATTCGTTG | -0.0541
ATATCAAC | 0.0447
GATCCTCA | -0.0365
CTAGCCGC | 0.262
ACATGGCC | -0.0568
AAAGCAGA | -0.186
AAGAACTA | -0.153
CCTTGCGC | 0.18
TGCACCAA | -0.297
CTCCCTCA | -0.208
ACAACCGC | 0.208
ATCTAGGA | -0.0733
GTGAAATA | -0.127
AGGTTAAT | -0.181
CAAGGCTC | -0.133
AGAAGATG | -0.0739
CGATTTAG | 0.148
TAGTGCAA | -0.00228
CTTAGCAA | -0.12
ACCATTCC | -0.00679

A few entries again (block 2):
Sequence | bound/input enrichment
CAGUCUUUAAGUAUGCCAGCAUCUCUUGGAAGGAUGAACCAGGGUACUGCACGCCUUGCCCGUUUAAUGAAUCUUGGAAUGAGUUCUUCAUUGAAUCAACAAGGAGCUCAUAGUGCACUG | 0.111 ratio
UAGGAAGCAAAUGUCUAUUUCCAAAGCAAUGAGCUUGUUGUGACUGUGAUUUUAUUCUUCUACCGUAUUUUUUUCCUCAUUUUAACUGAGAGGAGAAAAUAAUACUCUUUUGCAAUAUCC | 0.068 ratio
GAGAACUUGCAUGAUGUUGCCUACAAGAAUGCCUUGGCUAAUCCUUUGUACUGUCCUGACUACCGGAUGGGGAAGAUAACAUCAGAGGAAUUACAUUACUUUGUUCAGAACCACUUCACA | 0.128 ratio
UCUAGAAUGUCUUCAACUAAAUCAAGUGGAAGUGAAUCAGACAGAUCAGAAAGGCCUGCAUCCGUACGCCAGUCUACUUUCAUCAAAGAAGCCCCAAGCCCAACCCUGAGGAGGAAACUG | 0.115 ratio
CUGAAUGAUUUUGGCUUCAUGAUCUUUCACUCACCAUAUUGUAAACUGGUGCAGAAAUCUCCCGCUCGGAUGUUCCUGAAUGACUUUCUUAAUGAUCAAAACAGAGAUAAAAACAGUAUU | 0.104 ratio
